Measured values from different studies.
A part holds a random share of what one study measured.

Set 1
Target: Centromere-binding protein 1, full length, His-tagged (CBF1, Saccharomyces cerevisiae, UniProt P17106, residues 1-351)
Chain of UniProt P17106 (whole entry, looked up): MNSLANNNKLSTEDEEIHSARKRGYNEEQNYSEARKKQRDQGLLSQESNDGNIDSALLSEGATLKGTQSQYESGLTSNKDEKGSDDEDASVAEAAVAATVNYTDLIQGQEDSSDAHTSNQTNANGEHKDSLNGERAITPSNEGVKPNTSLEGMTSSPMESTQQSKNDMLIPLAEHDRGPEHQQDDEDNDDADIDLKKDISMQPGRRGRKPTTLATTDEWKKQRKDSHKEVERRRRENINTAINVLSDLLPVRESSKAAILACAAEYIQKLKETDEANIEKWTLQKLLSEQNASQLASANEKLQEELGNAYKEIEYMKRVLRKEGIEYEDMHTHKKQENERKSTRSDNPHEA
Technique: competition protein-binding microarray
Molecule type: double-stranded DNA, one strand shown
Medium: in vitro
Concentration: 2 µM
Notes: whole 60-bp probe, lowest competitor level
Added: Pho4 competitor, 0.05 µM
Reading: higher = stronger binding
Endpoint: fluorescence intensity
AAATTACTAAGTTTTCACGTGTACTACCCCGTATGAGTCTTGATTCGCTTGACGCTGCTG: 950 a.u.
CATTTATTCTCTACCCATGTGGTGCCTGCCAGATCCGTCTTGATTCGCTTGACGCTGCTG: 137 a.u.
GTTATAAAAATATGTCAGGTGATTTTTTTTTCTCTTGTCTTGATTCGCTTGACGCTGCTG: 2210 a.u.
ATAGAAAACTGCATAGTCGTGCTTTCAAACCTTTCTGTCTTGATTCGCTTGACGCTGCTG: 119 a.u.
TGGAACATCGCGAACATCGTGCCGACGCTGATAGTCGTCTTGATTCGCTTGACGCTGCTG: 73.4 a.u.
GTCTTCTGCCCCGGTCATATGAGTGGTATTCTTCTAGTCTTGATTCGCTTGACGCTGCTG: 139 a.u.
ATTTATCATTTAAATCACATGGACACCCACCGAACTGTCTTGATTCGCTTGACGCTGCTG: 817 a.u.
CGCCAAAGTTCTTGCCTCGTGGTCGTTGGCCTTCGCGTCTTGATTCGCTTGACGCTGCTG: 107 a.u.
ATTCTTGAGAACATCCGCGTGAACCAGAGCAAACAGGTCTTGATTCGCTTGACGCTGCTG: 109 a.u.

Set 2
Target: Hepatocyte nuclear factor 3-alpha (Foxa1, Mus musculus, UniProt P35582, residues 1-468, full length assumed)
Technique: EMSA with sequencing
Molecule type: double-stranded DNA, one strand shown
Medium: in vitro
Concentration: 10 and 20 nM
Notes: whole designed probe, mean of two concentrations, ends assumed
Baseline: negative control set to 0
Reading: higher = stronger binding
Endpoint: normalised bound fraction
Residues (chain): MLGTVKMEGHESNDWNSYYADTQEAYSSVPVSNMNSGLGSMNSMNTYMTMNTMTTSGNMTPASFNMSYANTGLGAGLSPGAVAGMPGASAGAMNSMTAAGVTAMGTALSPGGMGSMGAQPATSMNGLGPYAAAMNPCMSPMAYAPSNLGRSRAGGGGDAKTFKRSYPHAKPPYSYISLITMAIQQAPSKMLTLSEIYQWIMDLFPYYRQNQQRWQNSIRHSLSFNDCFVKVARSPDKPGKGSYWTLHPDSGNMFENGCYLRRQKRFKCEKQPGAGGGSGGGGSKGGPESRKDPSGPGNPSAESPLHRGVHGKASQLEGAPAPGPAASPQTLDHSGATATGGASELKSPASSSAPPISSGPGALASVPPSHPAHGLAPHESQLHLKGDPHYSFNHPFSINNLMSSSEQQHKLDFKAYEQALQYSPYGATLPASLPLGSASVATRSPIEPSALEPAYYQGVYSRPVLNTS
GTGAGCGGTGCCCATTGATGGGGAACTTTGCTCCCCACACCCATTGCCTGCCACAAAAGGGTATTTTGCCAACTTCAGTATGTAAACATTTAGGGATATAGATGAGCTGATCACATGTCTGTTTACATAGTTAATAATTTACGCATACACATTTAAACTTACTCATATAAAGTCATACACAATTTAGAATCATTACTTTTTGCTATTCTTACATTTCAGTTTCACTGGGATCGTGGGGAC: 0.518 ratio
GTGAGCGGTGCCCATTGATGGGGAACCTGGAAAATTATGTAGCCAGTCCTGCTGTCTCATGGTTAGCTTCAGGCAATCAGAGGAGGGAATGGTTTACTCCAGGAGGAATGGTGACTTCTTATTTGCTTATTCCACCCTTCTTTACCTTTGCCTTCAAAATGTTTATTCAGGGAGTCCTACTGCCTGCTGTTACTGGTGTTGGCAGAAGATAGCACTGGTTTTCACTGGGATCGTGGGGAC: 0.368 ratio
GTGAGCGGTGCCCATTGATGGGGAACAACAAACAAATAAAACAACTAGTATGGAAGCTAGAATAATGTGATGCACCATTACACCAAATATTCAGTCTTAACATGGTTTTTAATATTATGTAAACATGGAAGGTATTGCCATTGTTCATATGATACAGAATCAATGGCACTCACAATCATCTGAATATATTGAAAAATGGCACCTTCAAATAAAAATTGTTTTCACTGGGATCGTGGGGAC: 0.489 ratio
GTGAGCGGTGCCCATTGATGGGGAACCTTGATTTATGGCTAGAATATGACATACATGAGCATTTGCCTTTCCTAAGATAATTCACAAGCATCCCCCCAAAAAATATAGATAGGGATCAAAGTAATCTAACAAACAAACAAAAACAGAAGCAATTGAATTTGACCTTATAATGGTCATAAAGTGATGATGGACATGACCAAAGCCACAACATCAGTAGAATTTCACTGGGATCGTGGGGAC: 0.232 ratio
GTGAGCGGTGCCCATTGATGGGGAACAATTTCCTGTGCTCTCTTTCCTGCCCTCATTCAAGTGGTCACCTTCCTTATTTCCCTCAGAAATACTCACAGAAGCTGTCAGAAGGGTTATGAGTCATCTCTCACGTGCTTGAACCCACATGTCTATCAGCCAACCTTGGTGTGGCTGGACCTCACATTCAGATTGCCCTTCTGTGATGGATGAACTTGTGTTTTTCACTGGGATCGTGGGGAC: -0.0559 ratio
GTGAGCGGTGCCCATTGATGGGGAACTCGGCCAGCCTGGCTTCTGCGCCCCGCCAGGAGGTCGCGGAGCGGAGCGCGGCCAGGAAGTGAGCTGAGAATGACTCATTCCCCCACGCTGTTTGTTTATTCATGTCACATTCTCTCCACACACTGGCTCTTCTTTCTTTCGGGAGGAGGGGAGAAAGGAGCGGGAGGGCGGGCGGGCAGGGGAGAGGCAGGCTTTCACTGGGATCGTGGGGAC: 0.362 ratio

Set 3
Target: Histone acetyltransferase KAT6A, winged helix 1, GST fusion (KAT6A, Homo sapiens, UniProt Q92794, residues 1-85)
Technique: protein binding microarray
Molecule type: double-stranded DNA, one strand shown
Medium: in vitro
Concentration: not given
Notes: 8-mer, flanks averaged, mean of 2 arrays, mostly near background
Baseline: not given
Reading: higher = stronger binding
Endpoint: E-score
Residues (chain): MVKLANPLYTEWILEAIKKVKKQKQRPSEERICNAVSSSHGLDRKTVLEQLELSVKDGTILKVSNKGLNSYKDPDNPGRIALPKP
ACGGCATA: 0.284
GACTATCC: -0.0663
GACACCAC: -0.126
CTAATGTC: 0.0106
CTGTATCC: -0.116
CGGGTATA: 0.206

Further values, each from its own experiment
PhoQ, residues 284 288 289 292 302 303 SQSLSM
fold induction (PhoP, residues 12 14 15 18 19 NQCAL (Escherichia coli, UniProt P23836); Sort-seq, refers to: YFP reporter; E. coli; PhoQ-PhoP variant library, added: 10 µM Mg2+; baseline: high Mg2+ state, higher = stronger signaling): 2.43

Some of these lines once more (further values, each from its own experiment):
PhoQ, residues 284 288 289 292 302 303 SQSLSM
fold induction (PhoP, residues 12 14 15 18 19 NQCAL (Escherichia coli, UniProt P23836); Sort-seq, refers to: YFP reporter; E. coli; PhoQ-PhoP variant library, added: 10 µM Mg2+; baseline: high Mg2+ state, higher = stronger signaling): 2.43
